Experimental data collected from several papers.
Protocols differ between the studies behind these lines. Values joined by “and” are separate records of one study, mostly repeats; a detail may differ. pIC50: −log10 of the molar value.

C#CCn1cnc2ccc(-c3ccc(NC(=O)CCCC)nc3)cc2c1=O  pIC50 (HCC827; cell growth or viability, CCK-8; 72 h): < 5.00
Cc1nc(Nc2ccc3c(c2)/C(=C/c2ccccc2)C(=O)N3Cc2ccccc2)c2ccccc2n1  pIC50 (BEAS-2B; cell growth or viability, MTT): 4.62
CCCCCC(=O)Nc1ccc(-c2ccc3ncn(CCCC)c(=O)c3c2)cn1  pIC50 (NCI-H1975; cell growth or viability, CCK-8; 72 h): 6.32
C[C@]12O[C@H](C[C@]1(O)CO)n1c3ccccc3c3c4c(c5c6ccccc6n2c5c31)CNC4=O  pIC50 (MV4-11; cell growth or viability, ATP luminescence; 72 h): 8.20
COc1ccc(NC(=O)NCc2cn(Cc3ccccc3C)nn2)cc1  pIC50 (Huh-7; cell growth or viability, CCK-8; 72 h): < 4.30
CCCCn1cnc2ccc(-c3ccc(NC(=O)C4CCC4)nc3)cc2c1=O  pIC50 (NCI-H1975; cell growth or viability, CCK-8; 72 h): 5.83
Cc1nc(Nc2ncc(C(=O)Nc3c(C)cccc3Cl)s2)cc(N2CC[C@H](O)C2)n1  pIC50 (OCI-Ly3; cell growth or viability, ATP luminescence; 72 h): < 5.00
COC(=O)CN=c1scc(-c2ccccc2)n1-c1ccc(Cl)cc1  pIC50 (HepG2; cell growth or viability, MTT; 72 h): 5.07
COc1cc(Nc2nccc(-c3cnn4nc(OC)ccc34)n2)cc(C(F)(F)F)c1  pIC50 (EPLC-272H; cell growth or viability, ATP luminescence): 6.41
CCCC(=O)Nc1ccc(-c2ccc3ncn(CCC)c(=O)c3c2)cn1  pIC50 (HCC827; cell growth or viability, CCK-8; 72 h): 6.74
CC(C)C[C@H](NC(=O)[C@H](Cc1ccccc1)NC(=O)c1cnccn1)B(O)O  pIC50 (NCI-H838; cell growth or viability, ATP luminescence): 7.74
COc1cc2ncnc(Nc3ccc4c(c3)/C(=C/c3cccc(Cl)c3)C(=O)N4C)c2cc1OC  pIC50 (BEAS-2B; cell growth or viability, MTT): 5.01
NC(=O)NOCCCCCCCCCCCCCC[P+](c1ccccc1)(c1ccccc1)c1ccccc1  pIC50 (HCT-116; cell growth or viability, imaging): 6.05
CCCCn1cnc2ccc(-c3ccc(NC(=O)c4ccccc4)nc3)cc2c1=O  pIC50 (HCC827; cell growth or viability, CCK-8; 72 h): 6.11
Cc1nc(Nc2ccc3c(c2)C(C)(C)C(=O)N3C)c2ccccc2n1  pIC50 (BEAS-2B; cell growth or viability, MTT): 4.03
COC(=O)CN=c1scc(-c2ccccc2)n1-c1ccc(OC)cc1  pIC50 (HepG2; cell growth or viability, MTT; 72 h): 4.82
Cc1nc(N(C)c2ccc3c(c2)/C(=C/c2ccccc2Cl)C(=O)N3C)c2ccccc2n1  pIC50 (B16; cell growth or viability, MTT): 5.22
COC1=C(OC)[C@H](O)[C@H](C/C=C(\C)CC/C=C(\C)CCC=C(C)C)[C@@H](C)C1=O  pIC50 (A549; cell growth or viability, MTS): 5.05 and 5.16 and 5.39
C=C(F)C(=O)N1CCN(c2nc(OC[C@@H]3CCCN3C)nc3c2CCN(c2cccc4cccc(Cl)c24)C3)C[C@@H]1CC#N  pIC50 (NCI-H23; cell growth or viability, ATP luminescence): 6.12
CC1(C)CC[C@]2(CO)CC[C@]3(C)C(=CC[C@@H]4[C@@]5(C)CC[C@H](O)C(C)(C)[C@@H]5CC[C@]43C)[C@@H]2C1  pIC50 (RAW264.7; NO release, inhibitor, Griess; LPS-stimulated): < 4.00
CCCCn1cnc2ccc(-c3ccc(NC(=O)Nc4ccc(OC(F)(F)F)cc4)nc3)cc2c1=O  pIC50 (HCC827; cell growth or viability, CCK-8; 72 h): < 5.00
COc1cc2ncnc(N(C)c3ccc4c(c3)/C(=C/c3ccccc3)C(=O)N4C)c2cc1OC (mixture of isomers)  pIC50 (BEAS-2B; cell growth or viability, MTT): 4.63
CCCn1cnc2ccc(-c3ccc(N4CCCCCCC4=O)nc3)cc2c1=O  pIC50 (HCC827; cell growth or viability, CCK-8; 72 h): < 5.00
Cc1nc(N(Cc2ccccc2)c2ccc3c(c2)/C(=C/c2ccccc2)C(=O)N3Cc2ccccc2)c2ccccc2n1 (mixture of isomers)  pIC50 (BEAS-2B; cell growth or viability, MTT): 4.72
CCCCC(=O)Nc1cc(F)c(-c2ccc3ncn(CCC)c(=O)c3c2)cn1  pIC50 (HCC827; cell growth or viability, CCK-8; 72 h): 6.31
COc1cc2nc(N3CCN(C(=O)C4COc5ccccc5O4)CC3)nc(N)c2cc1OC (centres unmarked)  pIC50 (HONE1; cell growth or viability, MTT; 48 h): 4.59
Cc1nc(NC(=O)N2CCC[C@H]2C(N)=O)sc1-c1ccnc(C(C)(C)C(F)(F)F)c1  pIC50 (BEAS-2B; cell growth or viability, MTT): 4.73
CO[C@]12C[C@@H](COC(=O)c3cncc(Br)c3)CN(C)[C@@H]1Cc1cn(C)c3cccc2c13  pIC50 (HONE1; cell growth or viability, MTT; 48 h): 4.71
COc1cccc2c1C(=O)c1c(O)c3c(c(O)c1C2=O)C[C@@](O)(C(=O)CO)C[C@@H]3O[C@H]1C[C@H](N)[C@H](O)[C@H](C)O1  pIC50 (A549; cell growth or viability, WST-1; 72 h): 6.35

Excerpt of the above:
CCCC(=O)Nc1ccc(-c2ccc3ncn(CCC)c(=O)c3c2)cn1  pIC50 (HCC827; cell growth or viability, CCK-8; 72 h): 6.74
Cc1nc(NC(=O)N2CCC[C@H]2C(N)=O)sc1-c1ccnc(C(C)(C)C(F)(F)F)c1  pIC50 (BEAS-2B; cell growth or viability, MTT): 4.73
